Published values collected from several papers.
Each numbered part is a random draw from the data of one study; scales do not carry over between parts.
UniProt P50406, sequence (whole entry, looked up): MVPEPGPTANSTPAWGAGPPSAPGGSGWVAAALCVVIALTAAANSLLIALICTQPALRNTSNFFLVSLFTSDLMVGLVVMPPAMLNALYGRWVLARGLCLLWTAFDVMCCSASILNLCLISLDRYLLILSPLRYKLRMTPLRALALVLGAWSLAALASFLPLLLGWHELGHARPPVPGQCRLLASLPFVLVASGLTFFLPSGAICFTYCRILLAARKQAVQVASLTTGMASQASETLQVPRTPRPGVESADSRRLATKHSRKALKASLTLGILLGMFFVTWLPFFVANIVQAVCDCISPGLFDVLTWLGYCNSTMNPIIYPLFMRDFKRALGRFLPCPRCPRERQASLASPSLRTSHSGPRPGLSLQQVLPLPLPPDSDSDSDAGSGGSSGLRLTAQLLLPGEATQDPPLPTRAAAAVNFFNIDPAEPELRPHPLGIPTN
UniProt P00519, sequence (whole entry, unmodified, looked up): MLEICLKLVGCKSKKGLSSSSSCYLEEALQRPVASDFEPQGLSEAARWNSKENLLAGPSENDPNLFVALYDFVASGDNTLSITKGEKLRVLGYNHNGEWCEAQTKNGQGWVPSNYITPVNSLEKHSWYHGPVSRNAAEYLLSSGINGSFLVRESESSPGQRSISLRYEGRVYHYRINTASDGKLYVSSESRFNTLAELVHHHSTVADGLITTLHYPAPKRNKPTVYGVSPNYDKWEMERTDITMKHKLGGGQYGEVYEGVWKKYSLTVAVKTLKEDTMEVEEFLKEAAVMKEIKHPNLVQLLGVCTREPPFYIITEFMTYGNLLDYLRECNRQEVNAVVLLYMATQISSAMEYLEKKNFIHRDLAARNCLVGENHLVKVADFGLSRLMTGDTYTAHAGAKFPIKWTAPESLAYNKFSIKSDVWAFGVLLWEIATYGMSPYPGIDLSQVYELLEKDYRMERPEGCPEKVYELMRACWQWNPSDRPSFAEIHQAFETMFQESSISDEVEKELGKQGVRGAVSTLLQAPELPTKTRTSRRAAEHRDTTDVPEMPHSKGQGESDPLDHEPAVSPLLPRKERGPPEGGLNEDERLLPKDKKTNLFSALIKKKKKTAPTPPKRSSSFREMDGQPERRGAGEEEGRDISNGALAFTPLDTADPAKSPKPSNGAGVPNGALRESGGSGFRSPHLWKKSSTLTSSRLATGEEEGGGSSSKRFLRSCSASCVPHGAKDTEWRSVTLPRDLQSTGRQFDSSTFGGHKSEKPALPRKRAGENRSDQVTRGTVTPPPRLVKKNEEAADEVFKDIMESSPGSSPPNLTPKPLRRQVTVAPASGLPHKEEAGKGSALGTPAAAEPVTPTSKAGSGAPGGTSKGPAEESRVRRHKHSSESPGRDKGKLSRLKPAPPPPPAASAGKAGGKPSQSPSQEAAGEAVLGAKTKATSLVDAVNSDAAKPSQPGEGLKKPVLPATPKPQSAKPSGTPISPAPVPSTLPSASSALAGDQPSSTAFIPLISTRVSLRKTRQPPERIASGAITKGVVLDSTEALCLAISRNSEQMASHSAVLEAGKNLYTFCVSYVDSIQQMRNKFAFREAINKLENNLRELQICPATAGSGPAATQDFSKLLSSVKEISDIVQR
UniProt P41595, sequence (whole entry, looked up): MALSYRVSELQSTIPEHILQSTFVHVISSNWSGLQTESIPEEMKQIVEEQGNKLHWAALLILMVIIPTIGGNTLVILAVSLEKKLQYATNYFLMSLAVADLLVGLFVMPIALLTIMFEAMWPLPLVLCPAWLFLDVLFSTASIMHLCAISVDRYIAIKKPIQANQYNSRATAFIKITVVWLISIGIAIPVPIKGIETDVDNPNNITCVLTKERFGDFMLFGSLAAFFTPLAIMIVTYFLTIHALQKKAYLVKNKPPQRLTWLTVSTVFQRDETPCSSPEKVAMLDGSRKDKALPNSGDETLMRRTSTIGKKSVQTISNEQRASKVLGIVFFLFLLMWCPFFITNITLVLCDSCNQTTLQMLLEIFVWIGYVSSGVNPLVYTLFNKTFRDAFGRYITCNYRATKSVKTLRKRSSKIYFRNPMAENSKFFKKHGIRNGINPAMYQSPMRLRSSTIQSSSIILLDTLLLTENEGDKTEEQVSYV

Block 1 — observed: enzyme activity; mode: inhibitor; tested at: 0.5 µM; reference: control
Target: Beta-adrenergic receptor kinase 1 (GRK2, Homo sapiens, UniProt P25098)
Residues (P25098 1-689): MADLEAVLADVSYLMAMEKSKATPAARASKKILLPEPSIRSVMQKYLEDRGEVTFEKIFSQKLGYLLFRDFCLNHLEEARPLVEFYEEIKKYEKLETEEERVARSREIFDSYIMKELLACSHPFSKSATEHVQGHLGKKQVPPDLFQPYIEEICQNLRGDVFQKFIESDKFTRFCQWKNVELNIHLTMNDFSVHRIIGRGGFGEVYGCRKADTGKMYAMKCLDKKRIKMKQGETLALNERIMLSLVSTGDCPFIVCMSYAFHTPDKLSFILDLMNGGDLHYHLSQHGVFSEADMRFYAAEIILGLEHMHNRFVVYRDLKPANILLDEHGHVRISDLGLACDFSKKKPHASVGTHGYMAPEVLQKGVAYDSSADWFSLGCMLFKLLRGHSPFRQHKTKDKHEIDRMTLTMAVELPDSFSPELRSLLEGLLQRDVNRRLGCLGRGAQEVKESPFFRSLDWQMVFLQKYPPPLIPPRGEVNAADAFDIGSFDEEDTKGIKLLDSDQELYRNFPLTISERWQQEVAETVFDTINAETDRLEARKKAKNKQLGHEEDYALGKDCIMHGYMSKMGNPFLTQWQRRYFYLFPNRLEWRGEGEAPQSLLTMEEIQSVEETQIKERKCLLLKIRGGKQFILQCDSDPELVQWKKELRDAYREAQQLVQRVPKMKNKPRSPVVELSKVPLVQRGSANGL
| Structure (SMILES) | remaining activity [%] |
| --- | --- |
| COc1ccc(C(=O)Nc2sc3c(c2C(N)=O)CCCC3)cc1OC | 96.8 |
| Cc1cccc(-c2[nH]c(C(C)(C)C)nc2-c2ccc3c(c2)OCO3)n1 | 105 |
| O=C(O)c1ccc2c3c1cccc3c(=O)n1c3ccccc3nc21 | 99.3 |
| Nc1ncnc2n[nH]c(Nc3ccc(F)cc3)c12 | 98.6 |
| CC(C)[C@H](CO)Nc1nc(Nc2cc(N)cc(Cl)c2)c2ncn(C(C)C)c2n1 | 83 |
| O=C1NC(=O)C(c2cn(CCCO)c3ncccc23)=C1c1cnccn1 | 114 |
| CNC(=O)c1cc(Oc2ccc(NC(=O)Nc3ccc(Cl)c(C(F)(F)F)c3)cc2)ccn1 | 112 |
| N#CC(C#N)=C(N)/C(C#N)=C/c1ccc(O)cc1 | 104 |
| O=S(=O)(c1cccc2cnccc12)N1CCCNCC1 | 105 |
| COc1ccc(OC)c2c(=S)c3ccccc3[nH]c12 | 92.5 |
| NCCNc1ncc(C(N)=O)c(Nc2cccc(C(F)(F)F)c2)n1 | 100 |
| Cn1c2ccccc2c2c3c(c4c5ccccc5n(CCC#N)c4c21)CNC3=O | 103 |
| Cc1ccc(Nc2nccc(N(C)c3ccc4c(C)n(C)nc4c3)n2)cc1S(N)(=O)=O | 90.3 |
| Oc1ccc(-c2nc(-c3ccncc3)c(-c3ccc(F)cc3)[nH]2)cc1 | 101 |
| CCOC(=O)c1c(C)[nH]c(/C=C2\C(=O)Nc3ccccc32)c1C | 98.2 |
| Cc1nc(-c2ccccc2)c(-c2ccncc2)o1 | 100 |

Block 2 — technique: aptamer microarray, sandwich; molecule type: DNA with 2'F-ANA; matrix: in vitro; tested at: 200 nM; with: Cy3 exosite-II aptamer, 400 nM; reading: higher = stronger binding; strand: GGTTGGTGTGGTTGG
Target: Prothrombin, mature alpha-thrombin (F2, Homo sapiens, UniProt P00734)
Setting: whole 15-mer aptamer, many near background
| Modification | mean fluorescence intensity [a.u.] |
| --- | --- |
| 2'F-ANA at 1 5 8 9 10 11 13 14 15 | 47.9 |
| 2'F-ANA at 1 6 7 9 12 13 14 | 58.1 |
| 2'F-ANA at 5 6 7 8 11 13 15 | 60.7 |
| 2'F-ANA at 1 6 7 8 10 11 14 | 62.5 |
| 2'F-ANA at 1 3 5 7 10 12 13 14 15 | 45 |
| 2'F-ANA at 1 2 3 7 8 9 12 14 15 | 106 |
| 2'F-ANA at 3 4 5 8 9 11 14 | 56.7 |
| 2'F-ANA at 3 5 9 11 12 | 209 |

Block 3 — technique: RNA Bind-n-Seq; molecule type: RNA; matrix: in vitro; tested at: 20 nM; setting: 6-mer, flanks averaged, single round; with: 150 mM LiCl; reference: input library; reading: higher = stronger binding
Target: TAR DNA-binding protein 43, full length, His tag (TARDBP, Homo sapiens, UniProt Q13148, residues 1-414)
| Strand | 6-mer enrichment (R) |
| --- | --- |
| CCAUGG | 0.951 |
| CAAUCC | 0.833 |
| UCGCAA | 0.833 |
| CCUUCC | 0.975 |
| CGACAG | 0.809 |
| UAGUAA | 0.901 |
| GCUCCA | 0.927 |
| CGCUCC | 0.925 |

Further values, each from its own experiment
| Structure (SMILES) | target | assay | setting | how to read | endpoint | value |
| --- | --- | --- | --- | --- | --- | --- |
| C[C@@H]1CN(c2cc(-c3nn(C)c4ccc(OC5(C)CC5)cc34)ncn2)C[C@H](C)O1 | HTR2B (Homo sapiens, UniProt P41595) | binding, radioligand binding | 10 µM | – | inhibition | 26.7% |
| CNC(=O)Nc1ccc2c(c1)CC[C@]21OC(=O)N(CC(=O)N(Cc2ccc(F)cc2)[C@@H](C)C(F)(F)F)C1=O | ABL1 (Homo sapiens, UniProt P00519, F317I) | KINOMEscan | 1 µM, F317I mutant, phosphorylated | reference: control | remaining binding | 87% |
| CNC(=O)c1cc(C(=O)N[C@H]2[C@@H]3COC[C@@H]32)cc2c1O[C@@H](CF)[C@@H]2c1ccccc1 | HTR6 (Homo sapiens, UniProt P50406) | binding, radioligand binding | 10 µM | – | inhibition | -1.21% |

A few entries again (block 2):
| Modification | mean fluorescence intensity [a.u.] |
| --- | --- |
| 2'F-ANA at 3 5 9 11 12 | 209 |
| 2'F-ANA at 1 2 3 7 8 9 12 14 15 | 106 |
| 2'F-ANA at 1 3 5 7 10 12 13 14 15 | 45 |
| 2'F-ANA at 1 6 7 8 10 11 14 | 62.5 |
| 2'F-ANA at 1 6 7 9 12 13 14 | 58.1 |
